Results from different studies.
Every numbered part comes from another study and shows a few of its results, in no order.
Sequence of UniProt P29317 (whole entry, looked up): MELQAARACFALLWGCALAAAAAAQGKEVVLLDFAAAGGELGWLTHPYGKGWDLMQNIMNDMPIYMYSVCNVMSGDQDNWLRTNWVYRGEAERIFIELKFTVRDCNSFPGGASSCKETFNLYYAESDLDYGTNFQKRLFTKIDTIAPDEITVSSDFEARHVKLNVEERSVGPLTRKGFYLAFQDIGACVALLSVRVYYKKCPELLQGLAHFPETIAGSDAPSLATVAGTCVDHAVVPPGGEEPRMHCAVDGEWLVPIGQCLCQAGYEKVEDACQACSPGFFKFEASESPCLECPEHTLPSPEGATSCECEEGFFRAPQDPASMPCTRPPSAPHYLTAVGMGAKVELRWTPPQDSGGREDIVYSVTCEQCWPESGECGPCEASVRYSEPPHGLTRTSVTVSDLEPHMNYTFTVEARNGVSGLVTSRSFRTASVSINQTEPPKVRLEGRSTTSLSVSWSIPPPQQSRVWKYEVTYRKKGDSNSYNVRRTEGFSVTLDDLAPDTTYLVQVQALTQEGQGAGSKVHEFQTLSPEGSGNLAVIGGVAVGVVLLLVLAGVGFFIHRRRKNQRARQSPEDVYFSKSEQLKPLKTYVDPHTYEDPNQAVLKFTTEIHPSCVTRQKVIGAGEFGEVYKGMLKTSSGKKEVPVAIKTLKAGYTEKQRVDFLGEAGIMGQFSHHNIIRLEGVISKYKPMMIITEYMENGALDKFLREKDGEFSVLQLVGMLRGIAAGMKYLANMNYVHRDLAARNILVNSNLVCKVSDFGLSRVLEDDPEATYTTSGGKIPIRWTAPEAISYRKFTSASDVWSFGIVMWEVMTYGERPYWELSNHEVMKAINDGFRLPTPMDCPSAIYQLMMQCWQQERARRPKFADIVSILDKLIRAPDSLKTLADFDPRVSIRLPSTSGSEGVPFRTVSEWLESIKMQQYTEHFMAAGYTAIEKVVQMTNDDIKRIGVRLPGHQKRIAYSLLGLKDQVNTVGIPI
Sequence of UniProt P11362 (whole entry, looked up): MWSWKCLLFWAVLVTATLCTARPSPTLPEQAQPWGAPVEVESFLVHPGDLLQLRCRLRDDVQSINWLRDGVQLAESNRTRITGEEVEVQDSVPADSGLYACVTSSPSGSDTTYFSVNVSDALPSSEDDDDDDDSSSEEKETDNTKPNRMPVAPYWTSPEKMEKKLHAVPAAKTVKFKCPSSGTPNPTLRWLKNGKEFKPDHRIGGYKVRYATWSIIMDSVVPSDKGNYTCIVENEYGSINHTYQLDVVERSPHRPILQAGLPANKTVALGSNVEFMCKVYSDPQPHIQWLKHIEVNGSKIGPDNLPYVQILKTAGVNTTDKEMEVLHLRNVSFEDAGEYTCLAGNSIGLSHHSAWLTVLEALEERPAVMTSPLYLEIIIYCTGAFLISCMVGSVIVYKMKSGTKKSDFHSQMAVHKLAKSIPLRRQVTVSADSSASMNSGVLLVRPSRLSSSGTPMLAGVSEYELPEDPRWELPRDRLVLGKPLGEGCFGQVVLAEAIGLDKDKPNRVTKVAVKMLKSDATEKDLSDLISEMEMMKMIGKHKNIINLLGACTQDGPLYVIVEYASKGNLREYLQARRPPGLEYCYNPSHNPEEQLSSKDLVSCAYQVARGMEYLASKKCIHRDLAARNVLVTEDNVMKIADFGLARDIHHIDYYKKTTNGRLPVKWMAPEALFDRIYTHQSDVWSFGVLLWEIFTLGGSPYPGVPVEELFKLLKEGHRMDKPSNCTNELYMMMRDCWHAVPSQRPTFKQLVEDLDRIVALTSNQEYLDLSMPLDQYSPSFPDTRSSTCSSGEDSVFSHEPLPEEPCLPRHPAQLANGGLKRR
Sequence of UniProt P17948 (whole entry, looked up): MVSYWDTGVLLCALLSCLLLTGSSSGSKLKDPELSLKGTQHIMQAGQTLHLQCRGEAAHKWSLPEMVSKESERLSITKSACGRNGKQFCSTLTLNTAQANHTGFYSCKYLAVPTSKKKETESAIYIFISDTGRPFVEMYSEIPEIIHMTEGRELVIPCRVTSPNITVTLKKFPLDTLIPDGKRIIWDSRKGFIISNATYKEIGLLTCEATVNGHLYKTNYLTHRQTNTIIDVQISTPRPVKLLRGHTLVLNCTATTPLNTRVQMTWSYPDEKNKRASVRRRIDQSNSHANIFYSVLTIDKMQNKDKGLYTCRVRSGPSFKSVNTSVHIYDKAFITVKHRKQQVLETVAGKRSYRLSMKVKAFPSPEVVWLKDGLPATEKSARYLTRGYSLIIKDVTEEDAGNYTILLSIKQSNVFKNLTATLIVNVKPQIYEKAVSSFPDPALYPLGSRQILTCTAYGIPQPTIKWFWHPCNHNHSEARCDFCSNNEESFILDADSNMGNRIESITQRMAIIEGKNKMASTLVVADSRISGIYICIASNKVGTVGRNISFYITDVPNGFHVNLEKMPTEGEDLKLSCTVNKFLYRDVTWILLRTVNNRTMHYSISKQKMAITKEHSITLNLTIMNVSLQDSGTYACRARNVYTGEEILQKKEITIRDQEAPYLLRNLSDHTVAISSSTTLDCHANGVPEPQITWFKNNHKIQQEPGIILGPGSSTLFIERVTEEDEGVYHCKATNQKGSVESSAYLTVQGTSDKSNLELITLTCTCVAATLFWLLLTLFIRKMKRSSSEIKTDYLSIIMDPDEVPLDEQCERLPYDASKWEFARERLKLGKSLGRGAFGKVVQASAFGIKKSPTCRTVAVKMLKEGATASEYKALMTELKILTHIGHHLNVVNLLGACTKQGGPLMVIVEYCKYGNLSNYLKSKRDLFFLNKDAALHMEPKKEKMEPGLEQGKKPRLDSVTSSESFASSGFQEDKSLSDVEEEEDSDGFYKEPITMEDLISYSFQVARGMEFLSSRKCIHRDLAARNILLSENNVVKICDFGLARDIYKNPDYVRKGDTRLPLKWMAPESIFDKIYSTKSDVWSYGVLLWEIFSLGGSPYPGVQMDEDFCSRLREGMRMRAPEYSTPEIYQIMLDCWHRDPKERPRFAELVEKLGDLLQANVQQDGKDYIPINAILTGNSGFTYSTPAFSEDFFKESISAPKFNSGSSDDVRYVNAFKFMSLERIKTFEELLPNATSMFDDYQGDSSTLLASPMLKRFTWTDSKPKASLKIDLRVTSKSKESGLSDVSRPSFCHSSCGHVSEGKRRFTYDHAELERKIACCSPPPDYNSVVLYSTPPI
Sequence of UniProt P29597 (whole entry, looked up): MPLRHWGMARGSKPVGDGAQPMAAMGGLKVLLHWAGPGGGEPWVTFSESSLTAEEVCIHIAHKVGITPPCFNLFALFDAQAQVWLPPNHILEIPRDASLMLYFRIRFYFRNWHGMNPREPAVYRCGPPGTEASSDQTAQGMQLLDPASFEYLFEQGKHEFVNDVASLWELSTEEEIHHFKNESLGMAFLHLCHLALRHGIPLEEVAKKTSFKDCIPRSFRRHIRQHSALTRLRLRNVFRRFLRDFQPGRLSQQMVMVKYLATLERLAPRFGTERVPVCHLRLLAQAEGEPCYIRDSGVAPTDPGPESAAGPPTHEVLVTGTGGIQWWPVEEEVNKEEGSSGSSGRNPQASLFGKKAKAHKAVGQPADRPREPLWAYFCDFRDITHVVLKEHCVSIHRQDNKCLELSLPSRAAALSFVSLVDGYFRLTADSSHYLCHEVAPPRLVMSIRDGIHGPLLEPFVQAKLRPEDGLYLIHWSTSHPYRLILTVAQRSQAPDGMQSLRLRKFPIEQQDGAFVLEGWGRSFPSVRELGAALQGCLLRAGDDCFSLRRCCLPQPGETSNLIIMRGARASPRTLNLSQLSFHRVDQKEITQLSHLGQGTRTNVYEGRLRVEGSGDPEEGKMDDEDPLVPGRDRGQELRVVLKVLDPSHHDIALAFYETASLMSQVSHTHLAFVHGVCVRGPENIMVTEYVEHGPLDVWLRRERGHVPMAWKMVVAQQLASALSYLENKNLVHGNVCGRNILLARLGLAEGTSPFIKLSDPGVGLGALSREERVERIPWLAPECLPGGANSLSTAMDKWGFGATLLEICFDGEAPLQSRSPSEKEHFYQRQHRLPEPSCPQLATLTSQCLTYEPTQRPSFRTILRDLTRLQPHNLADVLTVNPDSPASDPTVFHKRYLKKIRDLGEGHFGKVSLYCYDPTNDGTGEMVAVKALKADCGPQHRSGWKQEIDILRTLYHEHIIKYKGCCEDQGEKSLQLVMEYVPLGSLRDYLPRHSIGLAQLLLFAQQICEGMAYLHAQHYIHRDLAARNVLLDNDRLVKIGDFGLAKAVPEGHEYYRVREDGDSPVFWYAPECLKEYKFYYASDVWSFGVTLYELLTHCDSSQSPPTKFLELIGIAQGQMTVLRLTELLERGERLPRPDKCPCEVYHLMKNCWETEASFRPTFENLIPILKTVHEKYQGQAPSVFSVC
Sequence of UniProt Q13882 (whole entry, looked up): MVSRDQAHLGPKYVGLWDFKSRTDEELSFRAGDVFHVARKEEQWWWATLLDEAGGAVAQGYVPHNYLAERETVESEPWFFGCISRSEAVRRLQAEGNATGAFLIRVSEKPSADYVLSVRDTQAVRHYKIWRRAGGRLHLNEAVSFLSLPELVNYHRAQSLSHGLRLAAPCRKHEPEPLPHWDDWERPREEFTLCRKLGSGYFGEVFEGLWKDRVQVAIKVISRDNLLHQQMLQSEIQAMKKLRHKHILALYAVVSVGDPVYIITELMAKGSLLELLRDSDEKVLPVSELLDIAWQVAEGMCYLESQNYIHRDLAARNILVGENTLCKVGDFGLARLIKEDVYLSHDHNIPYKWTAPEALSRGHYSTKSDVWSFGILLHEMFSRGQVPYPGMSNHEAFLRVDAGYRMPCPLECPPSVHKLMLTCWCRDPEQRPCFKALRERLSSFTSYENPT

Series 1
SMILES: CCCNC(=O)Nc1ccc(Oc2ncnc3cc(OC)c(OC)cc23)cc1Cl
Read-out: enzyme activity
Mode: inhibitor
Tested at: 0.5 µM
Baseline: control
target | remaining activity [%]
TEC (Homo sapiens, UniProt P42680) | 119
CAMKK1 (Homo sapiens, UniProt Q8N5S9) | 93.1
PRKCZ (Homo sapiens, UniProt Q05513) | 102
MUSK (Homo sapiens, UniProt O15146) | 101
EPHA6 (Homo sapiens, UniProt Q9UF33) | 77.7
SRPK1 (Homo sapiens, UniProt Q96SB4) | 102
EPHA2 (Homo sapiens, UniProt P29317) | 104
CSNK1D (Homo sapiens, UniProt P48730) | 98.9
TYRO3 (Homo sapiens, UniProt Q06418) | 102
CSNK1E (Homo sapiens, UniProt P49674) | 78.5
CLK2 (Homo sapiens, UniProt P49760) | 89.5
IGF1R (Homo sapiens, UniProt P08069) | 77
FLT1 (Homo sapiens, UniProt P17948) | 65.2
PAK1 (Homo sapiens, UniProt Q13153) | 93.8
CAMK1 (Homo sapiens, UniProt Q14012) | 96.7
CLK1 (Homo sapiens, UniProt P49759) | 96.2

Series 2
Target: RING finger protein unkempt homolog, zinc fingers 1-6, GST-SBP tag (UNK, Homo sapiens, UniProt Q9C0B0, residues 30-357)
Sequence of UniProt Q9C0B0 (30-357, looked up): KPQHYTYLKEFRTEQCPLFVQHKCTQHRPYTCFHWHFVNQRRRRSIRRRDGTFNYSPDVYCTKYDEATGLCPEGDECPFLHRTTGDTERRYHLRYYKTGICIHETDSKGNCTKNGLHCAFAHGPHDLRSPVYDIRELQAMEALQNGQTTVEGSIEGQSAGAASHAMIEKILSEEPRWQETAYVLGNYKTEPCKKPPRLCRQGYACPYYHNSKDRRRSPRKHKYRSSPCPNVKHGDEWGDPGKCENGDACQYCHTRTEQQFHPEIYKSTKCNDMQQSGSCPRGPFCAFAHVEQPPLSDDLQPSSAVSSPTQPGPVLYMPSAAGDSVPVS
Technique: RNA Bind-n-Seq
Molecule type: RNA
Medium: in vitro
Tested at: not given
Notes: RNA with constant flanks, human-mouse chimeric sites, ends assumed
Baseline: input RNA pool
Reading: higher = stronger binding
Sequence | bound/input enrichment [ratio]
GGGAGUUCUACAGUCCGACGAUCCGCUUGGAUGAGGCGGGUGUCACAGAUGAAGUGCUAGAUUCUGCCAUGCAAGCCUUCUUACUAGAAAUCAUUGUUAAACAUGGGGAGCCAGCCCCUUAUUUAUGUAACAAAGAUCCGUUUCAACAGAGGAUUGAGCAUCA | 0.303
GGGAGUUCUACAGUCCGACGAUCGCUCUUGGGAAUGUAAUCAGCGCCUUGGGGGACAAGAGCAAGAGAGCCACCCAUGUCCCUUACAGAGAUUCCAAGCUGACAAGACUCUUGCAGGAUUCCCUUGGGGGUAACAGCCAAACCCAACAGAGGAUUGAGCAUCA | 0.12
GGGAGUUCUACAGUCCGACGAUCAACUUCGUGCAUCGGUUUCCCUUUGUAGCUGUUUCAAUUGGCUUCCUUGUGAAUAAAAAGAUAGAAUUUGGAAUUGUGUACAGUUGUGUGGAAGAUAAGAUGUACACCGGCAGGAAAGGGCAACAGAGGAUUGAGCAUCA | 3.75
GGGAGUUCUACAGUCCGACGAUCCCAAGUGAUUCAUCCCAAGGACAGGCCACCCCAUUUGGUGUUUGGAAUGAUGACAGUAUGGAAGGGCCUAGUCAAAAUGUUGAAGCUGAGUCAAUUCAGGAUGCCAUGAGUAUGGAAGAGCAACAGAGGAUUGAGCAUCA | 0.215
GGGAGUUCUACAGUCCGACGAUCCUUAAUGAUAUUUUGAGUGAAUAAAUGAAGCUAAAAUGUCUGCUUUUGGUACAACACGCAUUAGCGAAAGGUUAAGUUUUGUUUUCCACUGAAGUACUAUUUAACAUCUCAGAAAAAAACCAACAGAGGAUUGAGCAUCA | 0.216
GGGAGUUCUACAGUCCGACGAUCUAAAUUAGGGCUGCCGUUUUCUGUUUCUCCCUGGGCUGCGGAAAGCCAGAAGAUUUUAUCUAGCUUAUACAAGGCUGCUGGUGUUCCCUCCCUCCCGCCACGAGGGUUUUUUUUCCAGCACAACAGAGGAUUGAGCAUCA | 0.849
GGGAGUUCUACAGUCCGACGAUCAAAGUGAUGACUAUGUUUGUCCAACGACAGGUAUUUUCGGAGAGCAAAGAUGAGAUUGCUUUAGUCCUCUAUGGCACAGAUGGCACUGAUAAUGCCCUUUCUGGUGGGGACCAGUAUCAGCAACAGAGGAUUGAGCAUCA | 0.376
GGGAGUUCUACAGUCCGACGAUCAAAGAGUGGAUAGAGUGUGCACACGGGAUCGGUGGGACCCGGGCGAAAAAGGAGUGCAAGAUAGAAUUCGAUGACUUCGAAGAGUGCUUGCUUCGGCACAAAACGAUGAGGCGAAUGCAUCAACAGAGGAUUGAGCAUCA | 0.393

Series 3
Compound: C[C@@H](c1cccc(C#N)c1)n1cc(Cl)cc(C(N)=O)c1=N
Read-out: cell-free assay
Technique: competition with immobilised ligand
Tested at: 1 µM
target | remaining binding [%]
FLT3 (Homo sapiens, UniProt P36888, D835V) | 95
PLK4 (Homo sapiens, UniProt O00444) | 100
Ribosomal protein S6 kinase alpha-3, N-terminal kinase domain (RPS6KA3, Homo sapiens, UniProt P51812) | 94
PIK3CA (Homo sapiens, UniProt P42336, Q546K) | 100
STK26 (Homo sapiens, UniProt Q9P289) | 68
Non-receptor tyrosine-protein kinase TYK2, JH1 (TYK2, Homo sapiens, UniProt P29597) | 100
Ribosomal protein S6 kinase alpha-5, N-terminal kinase domain (RPS6KA5, Homo sapiens, UniProt O75582) | 93
MAP2K5 (Homo sapiens, UniProt Q13163) | 88
TAOK3 (Homo sapiens, UniProt Q9H2K8) | 75
PTK6 (Homo sapiens, UniProt Q13882) | 85
EGFR (Homo sapiens, UniProt P00533, T790M) | 93
KIT (Homo sapiens, UniProt P10721, V559D/V654A) | 99
CDK18 (Homo sapiens, UniProt Q07002) | 100
FGFR1 (Homo sapiens, UniProt P11362) | 91

Mixed results
Technique: cross-linking MS
Molecule | partner | test system | conditions | endpoint | value
FYTTD1 (Homo sapiens, UniProt Q96QD9) | CHTOP (Homo sapiens, UniProt Q9Y3Y2) | cell fractions | with: DSSO | cross-linked residues | K166 to K81
SNRPA1 (Homo sapiens, UniProt P09661) | SF3A3 (Homo sapiens, UniProt Q12874) |  | hits only | interaction screen | cross-linked
AP2B1 (Homo sapiens, UniProt P63010) | AP2M1 (Homo sapiens, UniProt Q96CW1) |  | hits only | interaction screen | cross-linked
ALDH1B1 (Homo sapiens, UniProt P30837) | PGD (Homo sapiens, UniProt P52209) | cell fractions | with: DMTMM | cross-linked residues | K344 to E46

Some of these lines once more (series 1):
target | remaining activity [%]
CSNK1D (Homo sapiens, UniProt P48730) | 98.9
TYRO3 (Homo sapiens, UniProt Q06418) | 102
FLT1 (Homo sapiens, UniProt P17948) | 65.2
CAMKK1 (Homo sapiens, UniProt Q8N5S9) | 93.1
PRKCZ (Homo sapiens, UniProt Q05513) | 102
